Measured values pooled from the literature.
Protocols differ between the studies behind these lines. Values joined by “and” are separate records of one study, mostly repeats; a detail may differ. ± marks the error that the study gave.

Compound	test	test system	conditions	scale	quantity	result
COc1cc2ncnc(Oc3ccc(Nc4nccc5[nH]cc(-c6ccc(F)cc6)c(=O)c45)cc3F)c2cc1OC		Sprague-Dawley rat	oral, 100 mg/kg once daily, 28 days	relative to: vehicle	body weight gain	70%
CC(CCC(=O)NCC(=O)O)C1CCC2C3CCC4CC(OC5OC(C(=O)O)C(O)C(O)C5O)CCC4(C)C3CC(O)C12C (centres unmarked)		men, C/C genotype, plasma	dose not given, geometric mean		plasma concentration	490 ng/mL
CC(=O)NCCCC[C@@H]1NC(=O)[C@H](Cc2c[nH]c3c(C)cccc23)NC(=O)[C@H]([C@@H](C)O)NC(=O)[C@H](CC(N)=O)NC(=O)[C@@H](NC(C)=O)C(C)(C)SSC(C)(C)[C@@H](C(=O)N[C@@H](Cc2ccc(OCCN)cc2)C(=O)N[C@@H](Cc2ccc3ccccc3c2)C(=O)NC2(C(=O)N[C@@H](CCC(=O)O)C(=O)N[C@@H](CC(N)=O)C(=O)N[C@@H](Cc3cccnc3)C(=O)N(C)CC(N)=O)CCOCC2)NC1=O	equilibrium dialysis	rabbit, plasma	0.1 µM		plasma protein binding	71.9 ± 0.9%
CCCCCCCCCCCCCC(=O)N[C@@H](Cc1ccccc1)C(=O)N[C@@H](Cc1ccccc1)C(=O)N[C@@H](Cc1ccccc1)C(=O)N[C@@H](Cc1ccc(O)cc1)C(=O)NCC(=O)N[C@@H](CCCNC(=N)N)C(=O)N[C@@H](CCCCN)C(=O)N[C@@H](CCCCN)C(=O)N[C@@H](CCCNC(=N)N)C(=O)N[C@@H](CCCNC(=N)N)C(=O)N[C@@H](CCC(N)=O)C(=O)N[C@@H](CCCNC(=N)N)C(=O)N[C@@H](CCCNC(=N)N)C(=O)N[C@@H](CCCNC(=N)N)C(=O)O		10 mM PBS	64 µM, overnight, pH 7.4		zeta potential	13.1 mV
CC[C@H](C)[C@H](NC(=O)[C@H](C)NC(=O)[C@H](CCCCN)NC(=O)[C@H](CC(C)C)NC(=O)[C@@H](N)Cc1ccccc1)C(=O)N[C@@H](CCCCN)C(=O)N[C@@H](CCCCN)C(=O)N[C@@H](Cc1ccccc1)C(=O)NCC(=O)N[C@@H](CCCCN)C(=O)N[C@@H](CCC(=O)O)C(=O)N[C@@H](Cc1ccccc1)C(=O)N[C@@H](CCCCN)C(=O)N[C@@H](CCCCN)C(=O)N[C@H](C(=O)NCC(=O)N[C@@H](C)C(=O)N[C@@H](CCCCN)C(=O)N[C@@H](CC(C)C)C(=O)N[C@@H](CCCCN)C(=O)O)[C@@H](C)CC		human red blood cells	0.25 mg/L, 1 h, mean of replicates		hemolysis	0.286%
N=C(N)NCCC[C@@H](NC(=O)[C@H](N)Cc1c[nH]c2ccccc12)C(=O)N[C@H](CCCCN)C(=O)N[C@H](Cc1c[nH]c2ccccc12)C(=O)N[C@H](CCCNC(=N)N)C(=O)N[C@H](CCCCN)C(=O)N[C@H](Cc1c[nH]c2ccccc12)C(=O)N[C@H](CCCNC(=N)N)C(=O)N[C@H](CCCCN)C(=O)N[C@H](Cc1c[nH]c2ccccc12)C(=O)N[C@H](CCCNC(=N)N)C(=O)N[C@H](CCCCN)C(N)=O		mouse	intraperitoneal, 40 mg/kg single dose, day 5		survival	75%
Cc1nnc(-c2ccc(CC(=O)NCCCC[C@H](NC(=O)c3ccc(OCc4ccc(B(O)O)cc4)c(-c4nc5ccccc5c(=O)[nH]4)c3)C(=O)NCC(=O)NCC(=O)NCC(=O)N[C@@H](Cc3ccccc3)C(=O)N[C@@H](Cc3ccccc3)C(=O)O)cc2)nn1	chemical stability	human, serum	100 µM, 4.98 min		compound remaining	102%
CSCC[C@H](NC(=O)CNC(=O)[C@H](CCCCN)NC(=O)[C@H](CC(C)C)NC(=O)[C@@H]1CCCN1C(=O)[C@H](CO)NC(=O)[C@H](Cc1c[nH]cn1)NC(=O)[C@H](Cc1c[nH]c2ccccc12)NC(=O)[C@H](CCCNC(=N)N)NC(=O)[C@H](CC(C)C)NC(=O)[C@H](CCCNC(=N)N)NC(=O)[C@H](Cc1c[nH]c2ccccc12)NC(=O)[C@H](CS)NC(=O)CCCCCNC(=O)CN1CCN(CC(=O)O)CCN(CC(=O)O)CCN(CC(=O)O)CC1)C(=O)O [copper-64 labelled]	ex vivo biodistribution	C57BL/6J mice bearing B16-F10 tumours, tumour	intravenous, 1.85 MBq, 18 h		tissue uptake	3.17 %ID/g
N#[11C]c1ccc(-c2csc(NN=C3CCCC3)n2)cc1		C57BL/6 mice, male, lung	intravenous, 3 MBq, 15 min		radioactivity uptake	4.78 ± 0.16 %ID/g
CSCC[C@H](N)C(=O)N[C@@H](C)C(=O)N[C@@H](CCCNC(=N)N)C(=O)N[C@@H](CCCNC(=N)N)C(=O)N[C@@H](CC(=O)O)C(=O)N[C@@H](CCCCN)C(=O)N[C@H](C(=O)N[C@@H](CC(=O)O)C(=O)N[C@@H](Cc1ccccc1)C(=O)N[C@@H](C)C(=O)N[C@@H](CCCNC(=N)N)C(=O)N[C@@H](CCCNC(=N)N)C(=O)N[C@@H](CCCNC(=N)N)C(=O)N[C@@H](CCCNC(=N)N)C(=O)NCCCCCC(=O)NCCCCC(NC(=O)CCCCCNC(=O)[C@H](CCCNC(=N)N)NC(=O)[C@H](CCCNC(=N)N)NC(=O)[C@H](CCCNC(=N)N)NC(=O)[C@H](CCCNC(=N)N)NC(=O)[C@H](C)NC(=O)[C@H](Cc1ccccc1)NC(=O)[C@H](CC(=O)O)NC(=O)[C@@H](NC(=O)[C@H](CCCCN)NC(=O)[C@H](CC(=O)O)NC(=O)[C@H](CCCNC(=N)N)NC(=O)[C@H](CCCNC(=N)N)NC(=O)[C@H](C)NC(=O)[C@@H](N)CCSC)[C@@H](C)O)C(=O)NCCCCC(NC(=O)C(CCCCNC(=O)CCCCCNC(=O)[C@H](CCCNC(=N)N)NC(=O)[C@H](CCCNC(=N)N)NC(=O)[C@H](CCCNC(=N)N)NC(=O)[C@H](CCCNC(=N)N)NC(=O)[C@H](C)NC(=O)[C@H](Cc1ccccc1)NC(=O)[C@H](CC(=O)O)NC(=O)[C@@H](NC(=O)[C@H](CCCCN)NC(=O)[C@H](CC(=O)O)NC(=O)[C@H](CCCNC(=N)N)NC(=O)[C@H](CCCNC(=N)N)NC(=O)[C@H](C)NC(=O)[C@@H](N)CCSC)[C@@H](C)O)NC(=O)CCCCCNC(=O)[C@H](CCCNC(=N)N)NC(=O)[C@H](CCCNC(=N)N)NC(=O)[C@H](CCCNC(=N)N)NC(=O)[C@H](CCCNC(=N)N)NC(=O)[C@H](C)NC(=O)[C@H](Cc1ccccc1)NC(=O)[C@H](CC(=O)O)NC(=O)[C@@H](NC(=O)[C@H](CCCCN)NC(=O)[C@H](CC(=O)O)NC(=O)[C@H](CCCNC(=N)N)NC(=O)[C@H](CCCNC(=N)N)NC(=O)[C@H](C)NC(=O)[C@@H](N)CCSC)[C@@H](C)O)C(N)=O)[C@@H](C)O (some centres unmarked)		C57BL/6 mouse female, lungs	dose not given, 3 h	relative to: total	tissue distribution	1.21% and 2.74% and 1.76%
COc1cnc2cccc(N3CCc4c(cc(Cn5ccnc5)cc4-c4cn(C)nc4C(F)(F)F)C3=O)c2c1		BALB/c nude mice, MV4-11 xenograft	intraperitoneal, 50 mg/kg, day 35		body weight	24.6 g and 22.6 g and 25.8 g and 24.3 g and 24.5 g
C/C(=N\OCCCN1CCCCC1)c1ccc(C(F)(F)F)cc1		rhesus monkey	dose not given, after dosing		QT interval	140 ms and 164 ms
O=C1NC2(CC2)COc2ncc(F)cc2[C@H]2COCCN2c2ccn3ncc1c3n2		Sprague-Dawley rat, male, spleen	oral, 10 mg/kg/day, 4 weeks, end of treatment		organ-to-body weight ratio	0.386 ± 0.168%
CC[C@H](C)[C@H](NC(=O)[C@H](CCCCN)NC(=O)CNC(=O)[C@H](CC(C)C)NC(=O)[C@H](Cc1ccccc1)NC(=O)[C@H](CCCCN)NC(=O)[C@H](CO)NC(=O)[C@H](Cc1ccccc1)NC(=O)[C@H](Cc1c[nH]c2ccccc12)NC(=O)[C@H](CCC(N)=O)NC(=O)[C@@H](NC(=O)[C@H](Cc1ccccc1)NC(=O)CCCCCNC(=O)CN1CCN(CC(=O)O)CCN(CC(=O)O)CCN(CC(=O)O)CC1)C(C)C)C(=O)N[C@@H](CCC(=O)O)C(=O)N1CCC[C@H]1C(=O)N[C@@H](CC(=O)O)C(=O)N[C@H](C(=O)N[C@@H](CO)C(=O)N[C@@H](CCC(N)=O)C(=O)N[C@H](C(=O)N[C@@H](CCC(N)=O)C(=O)N[C@@H](CC(=O)O)C(=O)N1CCC[C@H]1C(=O)N[C@@H](CC(N)=O)C(=O)N[C@@H](CC(=O)O)C(=O)N[C@@H](CCC(N)=O)C(=O)N[C@@H](Cc1ccc(O)cc1)C(=O)N[C@@H](CCC(=O)O)C(=O)N1CCC[C@H]1C(=O)N[C@@H](Cc1ccccc1)C(=O)O)C(C)C)C(C)C [copper-64 labelled]	dynamic PET	mouse, CT26 tumour, untreated, tumour	intravenous, 100 µCi/mouse, 1500 s		SUVmean	1.1 SUV
NC1CCN(C(=O)Oc2ccc(C3CCCC4(C3)OOC3(O4)C4CC5CC(C4)CC3C5)cc2)CC1 (racemic)		male Sprague-Dawley rat, plasma	intravenous, 10 mg/kg		MRT(0-inf)	10.1 h
N#Cc1c(Cl)ccc2c1C1(CCN(C(=O)c3cnc4[nH]ncc4c3)CC1)C(=O)N2CC(=O)NCC(F)(F)F		mouse liver microsomes			CLint	17 µL/min/mg protein
C#Cc1c(F)ccc2cc(O)cc(-c3ncc4c(N5CC6CCC(C5)N6C(=O)OC(C)OC(=O)CC(C)(C)C)nc(OC[C@@]56CCCN5C[C@H](F)C6)nc4c3F)c12 (some centres unmarked)	item: prodrug	mouse whole blood	1 µM		t1/2	1.05 h
CC(C)[C@@H]1NC(=O)CNC(=O)[C@H](CC(N)=O)NC(=O)[C@H](CCCNC(=N)N)NC(=O)[C@H](Cc2ccc(O)cc2)NC(=O)[C@H](C(C)C)NC(=O)[C@@H](NC(=O)[C@@H](NC(=O)[C@H](CC(N)=O)NC(=O)[C@H](Cc2c[nH]c3ccccc23)NC(=O)[C@H](C)NC(=O)[C@H](Cc2ccccc2)NC(=O)CNC(=O)[C@H](CCCCN)NC(=O)[C@H](Cc2ccccc2)NC(=O)[C@H](Cc2ccccc2)NC(=O)[C@H](CCCCN)NC(=O)OCC2c3ccccc3-c3ccccc32)C(C)C)CSSC[C@@H](C(=O)N[C@@H](Cc2c[nH]cn2)C(=O)N[C@@H](CCCNC(=N)N)C(=O)N[C@@H](CCCNC(=N)N)C(=O)N[C@@H](C)C(=O)N[C@@H](CC(N)=O)C(N)=O)NC(=O)[C@H](C(C)C)NC(=O)[C@H](CCCNC(=N)N)NC1=O		ICR mice, serum	intraductal mammary, 5 mg/kg, day 5		blood urea nitrogen	11.1 ± 0.49 mmol/L
CN1Cc2cc(Cl)ccc2-n2c(nnc2C2CCN(c3cccc([18F])n3)CC2)C1		C57BL/6 mouse male, kidney	intravenous, dose not given, 5 min, together with: blocking agent 10 mg/kg		tissue uptake	9.63 ± 2.24 %ID/g
C=CC(=O)Nc1cccc(Cn2ncc3cnc(Nc4cnn(CCOC)c4)nc32)c1		Sprague-Dawley rat female, blood	oral, 180 mg/kg, day 28, 28-day subacute toxicity		mean corpuscular haemoglobin	22.6 ± 1.28 pg

Excerpt of the above:
Compound	test	test system	conditions	scale	quantity	result
CC(CCC(=O)NCC(=O)O)C1CCC2C3CCC4CC(OC5OC(C(=O)O)C(O)C(O)C5O)CCC4(C)C3CC(O)C12C (centres unmarked)		men, C/C genotype, plasma	dose not given, geometric mean		plasma concentration	490 ng/mL
CN1Cc2cc(Cl)ccc2-n2c(nnc2C2CCN(c3cccc([18F])n3)CC2)C1		C57BL/6 mouse male, kidney	intravenous, dose not given, 5 min, together with: blocking agent 10 mg/kg		tissue uptake	9.63 ± 2.24 %ID/g
